Measurements of several laboratories.
Every numbered part comes from another study and shows a few of its results, in no order.

Study 1 — method: RNA Bind-n-Seq; molecule type: RNA; sample: in vitro; concentration: 365 nM; baseline: no-protein control; reading: higher = stronger binding; quantity: RBNS enrichment (R)
Target: RNA binding protein fox-1 homolog 2, RRM domain, GST-SBP tag (RBFOX2, Homo sapiens, UniProt O43251-10, residues 100-194)
Notes: natural RNA segment, single round, ends assumed
Construct (chain): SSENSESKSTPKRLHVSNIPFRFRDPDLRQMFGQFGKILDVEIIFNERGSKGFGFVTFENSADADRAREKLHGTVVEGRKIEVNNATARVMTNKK
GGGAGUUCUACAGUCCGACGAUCUUCUUUCAUGAAGAACCCUGUUUAAAACUGGGGUCAUUAACUGUUCUAUUCUAACAAAGUAGUCUUGAGUUUCAUUUCUUAUGCCCCAUGGUAGUGGGAACCAGACCAAUUGGAAUUCUCGGGUGCCAA: 0.203
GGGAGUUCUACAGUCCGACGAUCUUUUGGUUUUUUAAAAUCUGUACAGUAAAAGCAACUUUUUCUGUCAAAUAAAAAUGAGAAAUGCAGUAAUUGGUCUGUAGUCUUUACUUGGGGUUAAGAGUUCUGUGAACUGGAAUUCUCGGGUGCCAA: 0.35
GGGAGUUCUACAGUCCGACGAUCUACCAUUUAUUGUAUUUGCAAAGCUAGUAUGGUUUUUAAUCACAGUAAAUCCUUUGUAUUCCAGACUUUAGGGCAGAGCCCUGAGGGAGUAUUAUUUUACAUAACCCGUCUGGAAUUCUCGGGUGCCAA: 0.566
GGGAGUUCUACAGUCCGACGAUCCACUGACCUGCCUGUAGCCCCAGUGACAGCUAGGAUGUGCAUUCUCCAGCCAUCAAGAGACUGAGUCAAGUUGUUCCUUAAGUCAGAACAGCAGACUCAGCUCUGACAUUUGGAAUUCUCGGGUGCCAA: 1.26
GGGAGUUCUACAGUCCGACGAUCCCCCUUAAAAAAAGAAAAAAAUUACCAAACAAUAAACUUGGCUAGACCUUGUUUUGAGGAUUUUACAAGACCUUUGUAGCGAUUAGAUUUUUUUUCUACAUUGAAAAUAGUGGAAUUCUCGGGUGCCAA: 0.636

Study 2 — method: protein-binding microarray; molecule type: double-stranded DNA, one strand shown; sample: in vitro; concentration: 250 nM; notes: 60-bp whole probe; with: salmon DNA 0.4 mg/ml; baseline: random background probes; reading: higher = stronger binding; quantity: log fluorescence; constant ends, left off below: GCCTAGCAC … GTCTTGATTCGCTTGACGCTGCTG
Target: Interferon regulatory factor 7, full length, phosphomimetic (IRF7, Homo sapiens, UniProt Q92985, residues 1-503, S101K/S471D/S472D/S475D/S476D/S477D/S483D/S484D/S487D)
UniProt Q92985, sequence (whole entry, unmodified, looked up): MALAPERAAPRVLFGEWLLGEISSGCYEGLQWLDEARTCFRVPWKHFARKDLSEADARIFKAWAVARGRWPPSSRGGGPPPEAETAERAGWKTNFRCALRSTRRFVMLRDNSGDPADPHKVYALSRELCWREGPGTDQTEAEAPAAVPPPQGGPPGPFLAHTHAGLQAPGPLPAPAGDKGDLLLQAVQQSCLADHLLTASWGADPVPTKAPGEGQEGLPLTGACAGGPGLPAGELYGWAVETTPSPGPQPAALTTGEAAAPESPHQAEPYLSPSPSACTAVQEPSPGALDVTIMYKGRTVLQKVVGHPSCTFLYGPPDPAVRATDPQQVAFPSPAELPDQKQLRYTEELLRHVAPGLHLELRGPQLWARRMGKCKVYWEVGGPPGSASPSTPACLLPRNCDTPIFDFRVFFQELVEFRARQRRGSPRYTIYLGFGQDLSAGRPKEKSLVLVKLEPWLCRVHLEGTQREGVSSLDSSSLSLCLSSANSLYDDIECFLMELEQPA
TTAGGTCTCCTACTGCTTTCGTGCTAG: -0.303 z-score
TTAGGTATCGACTATCGGCTAGTGCTA: 0.2 z-score
TTATGTCTCCTTTTCCTTTAGTGCTAG: 1.58 z-score
GTCGGACTGGGGTTTCGGGACGTGCTA: 1.43 z-score
TTAGGTTTAGGTTTCGGTTAGTGCTAG: 8.14 z-score
GTAGGTATCGACTATCGGTTAGTGCTA: -0.144 z-score
GACGGCATCGACTTTCGGGACGTGCTA: -0.438 z-score
GATGGTATCGGGTTTCGGGACGTGCTA: 3.74 z-score
TTAGGTATCGGTTTCGGCTAGTGCTAG: 6.77 z-score

Study 3 — method: universal PBM; molecule type: double-stranded DNA, one strand shown; sample: in vitro; concentration: not given; reading: higher = stronger binding; quantity: E-score
Target: Sal-like protein 4, full length isoform B (SALL4, Homo sapiens, UniProt Q9UJQ4-2, residues 1-616)
Notes: 8-mer, flanks averaged, mean of replicates
Target sequence (chain): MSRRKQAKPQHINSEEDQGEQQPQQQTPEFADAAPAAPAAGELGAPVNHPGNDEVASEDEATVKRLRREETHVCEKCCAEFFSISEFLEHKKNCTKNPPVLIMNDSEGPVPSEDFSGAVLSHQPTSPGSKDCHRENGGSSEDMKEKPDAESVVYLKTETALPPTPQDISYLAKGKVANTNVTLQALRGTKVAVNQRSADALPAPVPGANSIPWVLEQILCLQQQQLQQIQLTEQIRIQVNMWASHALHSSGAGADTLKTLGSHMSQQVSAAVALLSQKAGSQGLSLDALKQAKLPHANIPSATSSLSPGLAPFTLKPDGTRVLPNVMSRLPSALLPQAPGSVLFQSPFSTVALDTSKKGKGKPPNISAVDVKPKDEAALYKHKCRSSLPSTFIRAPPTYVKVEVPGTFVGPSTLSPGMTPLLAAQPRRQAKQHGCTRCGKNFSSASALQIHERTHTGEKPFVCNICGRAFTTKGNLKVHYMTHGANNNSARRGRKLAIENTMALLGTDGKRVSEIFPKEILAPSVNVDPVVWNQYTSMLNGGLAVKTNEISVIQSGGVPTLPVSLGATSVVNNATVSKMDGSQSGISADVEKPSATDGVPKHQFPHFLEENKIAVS
CCTTCGCG: -0.221
TAATCCGA: 0.175
GTCGTCAA: -0.0369
AGTTTACC: 0.00218
CTGATTGA: 0.00568

Mixed results
PhoQ, residues 284 288 289 292 302 303 NLSRDF  fold induction (PhoP, residues 12 14 15 18 19 LHHSG (Escherichia coli, UniProt P23836); Sort-seq, item: YFP reporter; E. coli; PhoQ-PhoP variant library, with: 10 µM Mg2+; baseline: high Mg2+ state, higher = stronger signaling): 0.806

Repeated from above (study 2):
TTAGGTATCGGTTTCGGCTAGTGCTAG: 6.77 z-score
GACGGCATCGACTTTCGGGACGTGCTA: -0.438 z-score
TTAGGTCTCCTACTGCTTTCGTGCTAG: -0.303 z-score
